Measured values collected from several papers.
A part holds a random share of what one study measured. Values joined by “and” are separate records of one study, mostly repeats; a detail may differ.
Chain of UniProt P30530 (whole entry, looked up): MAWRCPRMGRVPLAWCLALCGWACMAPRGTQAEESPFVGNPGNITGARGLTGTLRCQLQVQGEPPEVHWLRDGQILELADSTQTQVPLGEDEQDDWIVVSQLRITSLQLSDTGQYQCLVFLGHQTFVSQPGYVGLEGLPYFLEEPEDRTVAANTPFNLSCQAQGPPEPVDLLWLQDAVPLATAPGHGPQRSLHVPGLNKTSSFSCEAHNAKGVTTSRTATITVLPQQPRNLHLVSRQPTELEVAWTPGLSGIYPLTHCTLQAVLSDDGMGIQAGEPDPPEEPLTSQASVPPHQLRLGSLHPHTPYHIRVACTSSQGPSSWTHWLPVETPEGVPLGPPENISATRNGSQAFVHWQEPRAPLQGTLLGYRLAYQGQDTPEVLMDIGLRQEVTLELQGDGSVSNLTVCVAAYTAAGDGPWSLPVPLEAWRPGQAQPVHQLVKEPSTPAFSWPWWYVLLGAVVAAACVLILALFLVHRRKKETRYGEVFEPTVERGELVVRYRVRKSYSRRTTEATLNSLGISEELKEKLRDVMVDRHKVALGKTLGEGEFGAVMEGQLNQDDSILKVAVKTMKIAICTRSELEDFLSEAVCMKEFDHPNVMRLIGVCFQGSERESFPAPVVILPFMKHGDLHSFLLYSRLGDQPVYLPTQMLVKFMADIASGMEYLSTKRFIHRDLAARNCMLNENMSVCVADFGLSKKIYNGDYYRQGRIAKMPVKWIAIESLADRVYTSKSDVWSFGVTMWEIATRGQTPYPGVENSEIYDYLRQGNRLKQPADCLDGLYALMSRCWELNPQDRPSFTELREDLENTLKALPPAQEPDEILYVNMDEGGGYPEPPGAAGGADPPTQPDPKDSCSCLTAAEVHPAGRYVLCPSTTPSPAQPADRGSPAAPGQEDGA
Chain of UniProt O75582 (whole entry, looked up): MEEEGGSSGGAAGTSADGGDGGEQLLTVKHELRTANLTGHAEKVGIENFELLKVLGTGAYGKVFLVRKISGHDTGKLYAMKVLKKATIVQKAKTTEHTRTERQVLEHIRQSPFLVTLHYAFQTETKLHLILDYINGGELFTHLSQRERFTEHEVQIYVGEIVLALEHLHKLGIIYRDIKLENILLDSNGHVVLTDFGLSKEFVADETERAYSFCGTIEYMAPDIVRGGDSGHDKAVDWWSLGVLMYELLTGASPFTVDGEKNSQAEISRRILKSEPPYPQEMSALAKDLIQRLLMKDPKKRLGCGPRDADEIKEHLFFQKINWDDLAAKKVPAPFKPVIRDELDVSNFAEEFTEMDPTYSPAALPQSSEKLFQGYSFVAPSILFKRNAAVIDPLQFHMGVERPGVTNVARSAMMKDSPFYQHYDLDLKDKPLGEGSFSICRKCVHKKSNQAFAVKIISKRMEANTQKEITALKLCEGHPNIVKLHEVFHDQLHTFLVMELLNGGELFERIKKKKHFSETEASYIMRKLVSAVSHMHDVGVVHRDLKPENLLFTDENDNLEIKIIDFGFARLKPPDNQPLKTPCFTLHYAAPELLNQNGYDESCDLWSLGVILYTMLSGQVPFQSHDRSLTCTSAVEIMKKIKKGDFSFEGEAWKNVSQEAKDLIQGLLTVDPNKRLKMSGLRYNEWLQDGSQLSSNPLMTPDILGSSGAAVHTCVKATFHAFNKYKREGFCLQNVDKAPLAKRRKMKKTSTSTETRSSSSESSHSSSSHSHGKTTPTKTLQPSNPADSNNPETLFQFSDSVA
Chain of UniProt Q00534 (whole entry, looked up): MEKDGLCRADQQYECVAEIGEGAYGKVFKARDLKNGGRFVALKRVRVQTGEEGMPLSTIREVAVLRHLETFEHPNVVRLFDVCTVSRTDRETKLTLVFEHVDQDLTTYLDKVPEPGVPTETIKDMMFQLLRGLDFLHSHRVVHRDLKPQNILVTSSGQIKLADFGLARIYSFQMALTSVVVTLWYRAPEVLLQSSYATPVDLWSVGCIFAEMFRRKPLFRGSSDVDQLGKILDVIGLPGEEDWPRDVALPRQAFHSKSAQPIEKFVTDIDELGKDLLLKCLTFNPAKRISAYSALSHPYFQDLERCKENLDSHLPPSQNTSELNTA
Chain of UniProt O15530 (whole entry, looked up): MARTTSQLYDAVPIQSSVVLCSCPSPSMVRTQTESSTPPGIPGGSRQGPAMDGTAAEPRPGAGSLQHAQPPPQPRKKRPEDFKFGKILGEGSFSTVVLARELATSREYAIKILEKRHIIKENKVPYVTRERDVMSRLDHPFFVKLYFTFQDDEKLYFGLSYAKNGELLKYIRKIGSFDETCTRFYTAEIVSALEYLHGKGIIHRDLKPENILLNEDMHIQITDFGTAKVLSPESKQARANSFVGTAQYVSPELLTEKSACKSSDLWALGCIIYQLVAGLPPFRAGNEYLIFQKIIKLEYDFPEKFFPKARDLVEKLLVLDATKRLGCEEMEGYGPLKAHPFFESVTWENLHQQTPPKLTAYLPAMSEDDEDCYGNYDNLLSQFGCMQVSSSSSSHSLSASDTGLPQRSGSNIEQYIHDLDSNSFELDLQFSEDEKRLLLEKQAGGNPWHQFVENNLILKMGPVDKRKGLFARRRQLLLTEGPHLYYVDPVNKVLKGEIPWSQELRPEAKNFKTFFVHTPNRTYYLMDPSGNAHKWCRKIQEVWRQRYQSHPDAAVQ
Chain of UniProt Q9BYP7 (whole entry, looked up): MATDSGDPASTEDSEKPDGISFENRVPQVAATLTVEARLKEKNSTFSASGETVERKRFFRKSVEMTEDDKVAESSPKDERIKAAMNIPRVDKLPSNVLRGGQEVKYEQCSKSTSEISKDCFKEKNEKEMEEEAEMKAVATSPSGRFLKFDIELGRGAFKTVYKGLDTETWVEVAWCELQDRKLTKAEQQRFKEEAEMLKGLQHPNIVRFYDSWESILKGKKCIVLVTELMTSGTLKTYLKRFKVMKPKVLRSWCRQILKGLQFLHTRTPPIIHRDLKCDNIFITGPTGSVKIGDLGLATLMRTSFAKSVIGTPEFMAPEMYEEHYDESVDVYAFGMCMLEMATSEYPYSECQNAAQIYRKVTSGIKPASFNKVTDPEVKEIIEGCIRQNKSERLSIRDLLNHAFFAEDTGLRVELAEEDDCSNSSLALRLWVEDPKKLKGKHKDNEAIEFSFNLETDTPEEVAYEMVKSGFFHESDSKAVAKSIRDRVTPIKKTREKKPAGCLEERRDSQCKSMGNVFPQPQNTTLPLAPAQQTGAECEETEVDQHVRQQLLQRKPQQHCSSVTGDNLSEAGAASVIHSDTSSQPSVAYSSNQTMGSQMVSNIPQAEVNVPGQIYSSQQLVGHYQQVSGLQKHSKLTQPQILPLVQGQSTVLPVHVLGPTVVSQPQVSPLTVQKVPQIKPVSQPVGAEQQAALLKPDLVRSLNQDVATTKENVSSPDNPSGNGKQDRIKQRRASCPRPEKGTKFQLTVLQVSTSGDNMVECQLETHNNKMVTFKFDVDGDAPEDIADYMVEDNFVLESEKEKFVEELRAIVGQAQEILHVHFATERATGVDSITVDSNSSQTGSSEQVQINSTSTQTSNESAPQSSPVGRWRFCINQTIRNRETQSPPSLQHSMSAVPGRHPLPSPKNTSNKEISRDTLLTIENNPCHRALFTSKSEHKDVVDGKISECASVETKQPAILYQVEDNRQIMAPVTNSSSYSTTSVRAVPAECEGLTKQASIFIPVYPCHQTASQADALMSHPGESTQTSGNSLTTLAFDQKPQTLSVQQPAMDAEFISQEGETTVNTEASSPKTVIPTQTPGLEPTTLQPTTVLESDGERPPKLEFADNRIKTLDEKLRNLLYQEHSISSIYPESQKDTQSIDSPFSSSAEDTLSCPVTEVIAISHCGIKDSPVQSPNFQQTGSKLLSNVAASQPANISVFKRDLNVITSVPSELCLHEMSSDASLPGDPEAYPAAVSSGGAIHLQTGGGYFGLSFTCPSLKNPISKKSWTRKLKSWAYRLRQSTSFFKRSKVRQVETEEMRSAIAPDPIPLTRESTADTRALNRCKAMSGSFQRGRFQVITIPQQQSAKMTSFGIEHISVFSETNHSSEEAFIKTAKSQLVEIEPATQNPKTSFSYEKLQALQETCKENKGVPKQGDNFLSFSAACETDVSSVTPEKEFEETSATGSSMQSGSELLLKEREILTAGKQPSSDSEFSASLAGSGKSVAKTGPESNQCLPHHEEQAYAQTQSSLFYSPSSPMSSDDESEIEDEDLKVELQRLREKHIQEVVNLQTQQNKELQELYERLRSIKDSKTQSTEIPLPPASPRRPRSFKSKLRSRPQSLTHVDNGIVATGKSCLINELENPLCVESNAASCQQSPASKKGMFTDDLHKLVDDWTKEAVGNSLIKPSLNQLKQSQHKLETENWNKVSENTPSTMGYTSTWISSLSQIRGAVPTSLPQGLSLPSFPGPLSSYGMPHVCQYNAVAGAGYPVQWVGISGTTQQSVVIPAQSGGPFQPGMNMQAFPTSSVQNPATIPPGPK

Sample 1
Target: Muscarinic acetylcholine receptor M1 (CHRM1, Homo sapiens, UniProt P11229)
Chain of UniProt P11229 (whole entry, looked up): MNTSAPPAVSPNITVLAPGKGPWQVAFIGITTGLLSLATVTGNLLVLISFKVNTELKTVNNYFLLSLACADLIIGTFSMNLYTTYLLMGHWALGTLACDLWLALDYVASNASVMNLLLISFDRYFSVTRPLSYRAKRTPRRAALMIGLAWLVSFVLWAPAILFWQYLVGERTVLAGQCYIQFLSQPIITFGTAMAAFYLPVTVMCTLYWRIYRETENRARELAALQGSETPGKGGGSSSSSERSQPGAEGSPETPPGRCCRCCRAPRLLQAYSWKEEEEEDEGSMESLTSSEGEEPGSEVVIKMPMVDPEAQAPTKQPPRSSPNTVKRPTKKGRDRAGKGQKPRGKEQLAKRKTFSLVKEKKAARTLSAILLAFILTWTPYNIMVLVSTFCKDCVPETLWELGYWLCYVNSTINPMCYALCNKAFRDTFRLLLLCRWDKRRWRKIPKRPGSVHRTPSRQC
Observed: ligand displacement
Tested at: 10 µM
`C[C@H](c1ccc(F)cc1)N(Cc1cccc(C(=O)O)c1)C(=O)c1cnc2ccccc2c1` gave an inhibition of -14.7%.
`CO[C@H]1CC[C@H](CNc2ccc(S(=O)(=O)NC(=O)c3ccc(N4CCN(CC5=C(c6ccc(Cl)cc6)CC(C)(C)CC5)CC4)cc3Oc3cnc4[nH]ccc4c3)cc2[N+](=O)[O-])CC1` has an inhibition of 4.59%.
`Nc1cnc(N2CCc3cc(S(=O)(=O)Nc4c(F)cc(Cl)cc4F)cc(N4CCCC4=O)c32)nc1` has an inhibition of -9.48%.
`C[C@H](c1ccnc(Nc2nc3ccc(-c4cc(N(C)C)ncn4)cc3[nH]2)c1)N1CCN(C(=O)CC(F)(F)F)CC1` gave an inhibition of 15.1%.
For `Cc1ccccc1Oc1cc(-n2c(=O)cc(C(F)(F)F)[nH]c2=O)c2ccccc2c1Cl`, the inhibition was 17.8%.
For `CN(C)CC#Cc1ccc(OCCCc2sc(N3CCc4cccc(C(=O)Nc5nc6ccccc6s5)c4C3)nc2C(=O)O)c(F)c1`, the inhibition was -11.6%.

Sample 2
Structure (SMILES): N/C(=N\[N+](=O)[O-])N/N=C\c1ccc(-c2cccc([N+](=O)[O-])c2)o1
Observed: enzyme activity
Action: inhibitor
Tested at: 0.5 µM
Reference: control
For PDPK1 (Homo sapiens, UniProt O15530): remaining activity read 94.6%.
For RPS6KA5 (Homo sapiens, UniProt O75582): remaining activity read 101%.
It gave 94.7% for remaining activity (Cyclin-dependent kinase 6, with cyclin D3 (CDK6, Homo sapiens, UniProt Q00534)).
It gave 96.6% for remaining activity (WNK3 (Homo sapiens, UniProt Q9BYP7)).
It gave 100% for remaining activity (AXL (Homo sapiens, UniProt P30530)).
The remaining activity was 95.6% (MAP4K4 (Homo sapiens, UniProt O95819)).

Mixed results
`CC(C)S(=O)(=O)c1ccc2nccc(Nc3ccc4scnc4c3)c2c1` gave a viability of 12.9% (L929; necroptosis protection, CCK-8; 0.039 µM, added: TNF-α plus zVAD).
The viability of `CC(C)N(CCNC(=O)CN1CCCC1=O)C(C)C` is reported as 114% (HaCaT; 100 µM, 60 h).
The viability of `CC(C)(C)c1nc(-c2cccc(NS(=O)(=O)c3c(F)cccc3F)c2F)c(-c2ccnc(N)n2)s1` is reported as 55.2% and 48.6% and 50.1% and 55% and 58.9% (L929; MEM 10% FBS; 25 µM).
The viability of `CC(C)S(=O)(=O)c1ccc2nccc(Nc3ccc4sc(C5CCCC5)nc4c3)c2c1` is reported as 39.5% (L929; necroptosis protection, CCK-8; 0.625 µM, added: TNF-α plus zVAD).
For `CC[C@H](C)c1nc2cc(Nc3ccnc4ccc(S(=O)(=O)C(C)C)cc34)ccc2s1.Cl`, the viability was 19.1% and 12.4% and 11.6% and 16.2% and 11.9% (HT-29; necroptosis protection, CCK-8; 0.078 µM, added: TNF-α SMAC mimetic zVAD).

A few entries again (sample 2):
It gave 94.7% for remaining activity (Cyclin-dependent kinase 6, with cyclin D3 (CDK6, Homo sapiens, UniProt Q00534)).
It gave 96.6% for remaining activity (WNK3 (Homo sapiens, UniProt Q9BYP7)).
